Measured values from different studies.
Each line is one published result; not all experiments were run side by side. Values joined by “and” are separate records of one study, mostly repeats; a detail may differ. Numbers after ± are the reported error.
gag-pol integrase: Gag-Pol polyprotein, integrase (gag-pol, Human immunodeficiency virus type 1 group M subtype B, UniProt P04585)
HIPK4: Homeodomain-interacting protein kinase 4 (HIPK4, Homo sapiens, UniProt Q8NE63)
UniProt Q8NE63, sequence (whole entry, looked up): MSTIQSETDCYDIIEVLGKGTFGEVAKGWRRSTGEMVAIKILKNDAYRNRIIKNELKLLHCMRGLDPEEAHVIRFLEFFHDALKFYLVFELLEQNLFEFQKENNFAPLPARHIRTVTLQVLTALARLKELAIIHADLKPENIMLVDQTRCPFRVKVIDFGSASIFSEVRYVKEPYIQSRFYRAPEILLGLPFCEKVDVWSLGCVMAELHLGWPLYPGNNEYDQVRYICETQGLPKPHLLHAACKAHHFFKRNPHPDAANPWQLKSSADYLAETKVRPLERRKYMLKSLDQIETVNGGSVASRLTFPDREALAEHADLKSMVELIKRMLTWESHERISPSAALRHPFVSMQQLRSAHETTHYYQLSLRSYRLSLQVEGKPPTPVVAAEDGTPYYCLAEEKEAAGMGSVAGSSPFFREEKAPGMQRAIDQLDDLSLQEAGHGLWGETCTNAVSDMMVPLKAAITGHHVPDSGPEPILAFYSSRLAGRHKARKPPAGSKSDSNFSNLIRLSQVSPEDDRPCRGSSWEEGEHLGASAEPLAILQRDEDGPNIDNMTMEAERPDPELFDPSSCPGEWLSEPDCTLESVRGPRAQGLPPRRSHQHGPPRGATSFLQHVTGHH
SLC6A19: Sodium-dependent neutral amino acid transporter B(0)AT1 (SLC6A19, Homo sapiens, UniProt Q695T7)
UniProt Q695T7, sequence (whole entry, looked up): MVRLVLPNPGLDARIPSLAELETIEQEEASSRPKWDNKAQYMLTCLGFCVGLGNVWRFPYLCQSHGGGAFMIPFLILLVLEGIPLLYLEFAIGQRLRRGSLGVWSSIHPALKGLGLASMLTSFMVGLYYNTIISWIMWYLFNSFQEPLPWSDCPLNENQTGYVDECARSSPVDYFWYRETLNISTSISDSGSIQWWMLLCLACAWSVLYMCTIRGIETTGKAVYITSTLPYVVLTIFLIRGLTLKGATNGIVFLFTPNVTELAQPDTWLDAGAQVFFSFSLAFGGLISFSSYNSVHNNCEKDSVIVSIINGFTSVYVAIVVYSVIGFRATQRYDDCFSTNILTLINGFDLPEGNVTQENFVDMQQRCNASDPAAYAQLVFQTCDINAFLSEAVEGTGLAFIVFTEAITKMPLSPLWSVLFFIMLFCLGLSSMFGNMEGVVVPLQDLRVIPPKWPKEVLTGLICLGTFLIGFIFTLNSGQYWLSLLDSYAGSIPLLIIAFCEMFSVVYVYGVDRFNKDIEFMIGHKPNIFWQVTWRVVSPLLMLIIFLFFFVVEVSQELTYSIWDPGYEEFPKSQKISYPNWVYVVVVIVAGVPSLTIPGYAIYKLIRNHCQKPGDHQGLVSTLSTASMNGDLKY
UniProt O75582, sequence (whole entry, looked up): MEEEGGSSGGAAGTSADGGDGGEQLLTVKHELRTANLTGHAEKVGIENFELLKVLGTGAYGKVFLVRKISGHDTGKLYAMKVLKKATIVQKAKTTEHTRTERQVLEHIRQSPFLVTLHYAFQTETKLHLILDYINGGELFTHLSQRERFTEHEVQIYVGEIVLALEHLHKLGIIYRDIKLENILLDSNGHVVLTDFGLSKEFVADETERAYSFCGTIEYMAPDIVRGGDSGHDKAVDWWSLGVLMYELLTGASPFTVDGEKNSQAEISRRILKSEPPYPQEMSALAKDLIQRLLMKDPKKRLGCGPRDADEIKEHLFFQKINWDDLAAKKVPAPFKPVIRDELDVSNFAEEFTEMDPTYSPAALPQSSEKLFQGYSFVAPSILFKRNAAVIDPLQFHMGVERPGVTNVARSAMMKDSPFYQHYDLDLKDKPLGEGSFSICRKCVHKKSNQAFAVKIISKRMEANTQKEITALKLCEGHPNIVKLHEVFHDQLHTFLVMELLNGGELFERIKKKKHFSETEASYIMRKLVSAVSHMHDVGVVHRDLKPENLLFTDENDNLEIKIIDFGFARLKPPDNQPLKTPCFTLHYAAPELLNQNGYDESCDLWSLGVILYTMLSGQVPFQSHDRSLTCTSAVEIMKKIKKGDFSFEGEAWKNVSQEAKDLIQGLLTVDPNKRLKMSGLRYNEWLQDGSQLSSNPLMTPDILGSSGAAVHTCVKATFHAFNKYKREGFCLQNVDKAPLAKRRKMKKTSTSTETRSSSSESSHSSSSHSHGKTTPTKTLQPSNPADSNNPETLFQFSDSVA
UniProt Q92626, sequence (whole entry, looked up): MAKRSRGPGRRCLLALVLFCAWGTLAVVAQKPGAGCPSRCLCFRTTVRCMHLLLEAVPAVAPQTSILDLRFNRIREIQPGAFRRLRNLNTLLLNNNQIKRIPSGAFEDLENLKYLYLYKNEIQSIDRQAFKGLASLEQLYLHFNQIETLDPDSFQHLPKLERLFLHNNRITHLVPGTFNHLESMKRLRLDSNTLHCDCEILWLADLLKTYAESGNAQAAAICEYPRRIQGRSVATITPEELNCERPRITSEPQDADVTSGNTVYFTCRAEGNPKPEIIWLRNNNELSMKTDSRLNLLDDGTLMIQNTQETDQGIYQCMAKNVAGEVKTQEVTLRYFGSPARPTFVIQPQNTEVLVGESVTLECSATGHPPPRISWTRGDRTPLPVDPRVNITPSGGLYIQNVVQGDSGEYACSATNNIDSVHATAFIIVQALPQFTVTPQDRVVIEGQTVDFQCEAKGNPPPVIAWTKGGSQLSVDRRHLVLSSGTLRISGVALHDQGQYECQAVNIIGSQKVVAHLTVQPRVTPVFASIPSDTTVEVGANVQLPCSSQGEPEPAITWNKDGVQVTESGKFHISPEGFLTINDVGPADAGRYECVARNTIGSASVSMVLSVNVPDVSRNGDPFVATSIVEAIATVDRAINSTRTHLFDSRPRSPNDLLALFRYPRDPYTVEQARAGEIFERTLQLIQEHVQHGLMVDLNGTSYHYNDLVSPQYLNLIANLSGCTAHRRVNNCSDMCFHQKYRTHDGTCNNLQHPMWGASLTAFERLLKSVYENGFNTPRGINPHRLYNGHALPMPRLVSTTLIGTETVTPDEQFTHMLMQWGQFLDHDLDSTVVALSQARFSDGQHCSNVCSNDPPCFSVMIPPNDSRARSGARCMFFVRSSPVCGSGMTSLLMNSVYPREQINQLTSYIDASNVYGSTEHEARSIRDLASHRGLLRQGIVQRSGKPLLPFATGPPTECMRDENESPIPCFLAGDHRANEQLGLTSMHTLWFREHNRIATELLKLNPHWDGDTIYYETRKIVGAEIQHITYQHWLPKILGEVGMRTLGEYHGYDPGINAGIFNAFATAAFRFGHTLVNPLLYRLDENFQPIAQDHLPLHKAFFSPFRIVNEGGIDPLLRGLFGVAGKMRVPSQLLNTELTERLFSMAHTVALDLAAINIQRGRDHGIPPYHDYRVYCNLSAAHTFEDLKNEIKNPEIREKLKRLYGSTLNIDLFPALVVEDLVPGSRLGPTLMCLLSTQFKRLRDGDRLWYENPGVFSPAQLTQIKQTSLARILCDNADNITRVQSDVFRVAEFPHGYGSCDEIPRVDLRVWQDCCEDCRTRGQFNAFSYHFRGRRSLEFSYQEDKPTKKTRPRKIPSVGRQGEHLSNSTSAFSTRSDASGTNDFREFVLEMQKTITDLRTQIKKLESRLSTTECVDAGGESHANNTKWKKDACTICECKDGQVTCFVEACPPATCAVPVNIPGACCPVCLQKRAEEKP
UniProt P16591, sequence (whole entry, looked up): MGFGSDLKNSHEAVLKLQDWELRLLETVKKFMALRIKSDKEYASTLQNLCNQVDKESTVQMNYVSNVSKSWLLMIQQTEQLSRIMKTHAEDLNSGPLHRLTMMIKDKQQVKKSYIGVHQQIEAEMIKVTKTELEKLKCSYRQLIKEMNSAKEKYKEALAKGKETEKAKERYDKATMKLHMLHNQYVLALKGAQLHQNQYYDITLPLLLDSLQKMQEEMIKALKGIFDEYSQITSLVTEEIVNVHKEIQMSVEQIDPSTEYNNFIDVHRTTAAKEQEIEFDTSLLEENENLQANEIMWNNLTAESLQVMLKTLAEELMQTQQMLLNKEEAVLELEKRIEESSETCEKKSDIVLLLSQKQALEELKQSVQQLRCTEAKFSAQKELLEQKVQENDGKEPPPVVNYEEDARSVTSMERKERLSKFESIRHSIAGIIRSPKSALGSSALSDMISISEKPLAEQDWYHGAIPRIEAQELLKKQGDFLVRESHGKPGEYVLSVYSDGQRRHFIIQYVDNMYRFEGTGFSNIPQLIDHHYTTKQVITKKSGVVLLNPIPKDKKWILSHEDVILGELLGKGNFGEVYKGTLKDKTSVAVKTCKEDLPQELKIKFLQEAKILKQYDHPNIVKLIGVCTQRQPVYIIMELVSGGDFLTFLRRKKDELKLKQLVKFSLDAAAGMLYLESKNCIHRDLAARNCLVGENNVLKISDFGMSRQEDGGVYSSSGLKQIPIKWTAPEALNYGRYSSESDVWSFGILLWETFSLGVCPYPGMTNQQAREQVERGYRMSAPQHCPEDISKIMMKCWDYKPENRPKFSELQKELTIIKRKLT
UniProt Q96GD4, sequence (whole entry, looked up): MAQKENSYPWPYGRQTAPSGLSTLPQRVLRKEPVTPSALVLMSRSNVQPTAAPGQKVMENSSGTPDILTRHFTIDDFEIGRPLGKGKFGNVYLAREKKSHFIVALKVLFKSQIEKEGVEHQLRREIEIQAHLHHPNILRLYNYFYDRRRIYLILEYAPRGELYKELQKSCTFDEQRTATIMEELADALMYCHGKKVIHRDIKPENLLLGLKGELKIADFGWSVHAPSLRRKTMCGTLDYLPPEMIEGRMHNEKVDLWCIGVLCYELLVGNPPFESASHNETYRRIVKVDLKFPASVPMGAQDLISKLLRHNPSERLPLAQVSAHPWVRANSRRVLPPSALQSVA
UniProt P53778, sequence (whole entry, looked up): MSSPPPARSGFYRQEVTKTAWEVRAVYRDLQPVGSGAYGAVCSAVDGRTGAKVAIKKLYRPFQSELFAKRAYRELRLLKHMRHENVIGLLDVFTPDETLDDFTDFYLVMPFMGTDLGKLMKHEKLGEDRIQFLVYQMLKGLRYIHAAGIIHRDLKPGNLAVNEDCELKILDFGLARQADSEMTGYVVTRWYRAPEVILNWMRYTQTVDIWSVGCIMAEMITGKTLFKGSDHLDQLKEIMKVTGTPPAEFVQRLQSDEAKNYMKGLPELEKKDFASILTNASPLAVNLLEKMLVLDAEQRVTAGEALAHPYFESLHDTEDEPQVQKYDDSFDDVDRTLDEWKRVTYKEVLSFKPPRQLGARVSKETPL

COc1cc(-c2cncc3c2CN(C)Cc2cc(N4CCNCC4)ccc2-3)cc(OC)c1OC — remaining activity (TGFBR2 (Homo sapiens, UniProt P37173); kinase activity; 1 µM, human enzyme, with: ATP 10 µM; reference: DMSO control): 103%
CNc1ncc2c(/C=C/C(=O)N3CCC(OC)CC3)nn(Cc3cccc(C(F)(F)F)c3)c2n1 — remaining activity (SRPK2 (Homo sapiens, UniProt P78362); kinase activity, inhibitor; 1 µM; reference: untreated control): 100%
COc1cc(N2CCN(C)CC2)ccc1Nc1nc(N)n(C(=S)NCc2c(Cl)cccc2Cl)n1 — remaining activity (Ribosomal protein S6 kinase alpha-5, N-terminal kinase domain (RPS6KA5, Homo sapiens, UniProt O75582); enzyme activity; 10 µM; reference: control): 0.6%
C=CC(=O)N1CCC[C@@H](n2nc(-c3ccc(Oc4ccccc4)cc3)c3c(N)ncnc32)C1 — remaining activity (Aurora kinase B (AURKB, Homo sapiens, UniProt Q96GD4); 1 µM): 103%
CC(C)C(=O)Nc1n[nH]c2cc(-c3cccc(NS(=O)(=O)C4CC4)c3)ccc12 — remaining activity (PIP5K1C (Homo sapiens, UniProt O60331); ADP-Glo; 10 µM; reference: DMSO): 22.4%
O=C(O)c1ccc(Nc2ncc3c(n2)-c2ccc(Cl)cc2C(c2c(F)cccc2F)=NC3)cc1 — remaining activity (MARK1(h); kinase activity; 1 µM): 106%
COc1ccc(F)cc1C(=O)NCc1ccc(-c2nn([C@@H](C)C(F)(F)F)c(N)c2C(N)=O)cc1 — remaining activity (PEAK1 (Homo sapiens, UniProt Q9H792); kinase activity, inhibitor, HotSpot radiometric; 1000 nM, with: ATP at Km): 95.4 ± 0.7%
COc1ccc(Cn2cc(-c3ccc4c(c3)OCO4)c3ccc(-c4ccc5ccccc5c4)nc32)cc1 — remaining activity (gag-pol integrase; strand transfer; HIV-1; 10 µM): 75.9%
COc1cc(F)ccc1-c1ncnc(Nc2cccc(C[S@](C)(=N)=O)c2)n1 — remaining activity (FER (Homo sapiens, UniProt P16591); kinase activity; 10 µM, with: 10 µM ATP): 102%
O=C(NC1CCC1)c1ccc2nc(-c3cccc(NS(=O)(=O)NCCN4CCCCC4)c3)cn2c1 — remaining activity (PRKD3 (Homo sapiens, UniProt O94806); enzyme activity; 10 µM): 98%
Cc1cccc(-c2cn(C)c3nc(Cl)ccc23)c1 — remaining activity (gag-pol integrase; strand transfer; HIV-1; 10 µM): 80.6%
C[C@@H](Oc1ccc(S(C)(=O)=O)cc1C(=O)N1C[C@@H]2C[C@]2(c2cc(C(F)(F)F)on2)C1)C(F)(F)F — remaining activity (SLC6A9 (Homo sapiens, UniProt P48067); glycine uptake, inhibitor, [3H]glycine uptake; 0.005 µM, log concentration 5, with: [3H]glycine, 3.5 mg/mL methyl-β-cyclodextrin; reference: no inhibitor): 3.49%
NC/C(=C\F)COc1cccc(Cn2c(=S)[nH]c(=O)c3[nH]cnc32)c1 — remaining activity (Peroxidasin homolog (PXDN, Homo sapiens, UniProt Q92626); enzyme activity, inhibitor, Amplex UltraRed; 50 µM; reference: control): 9.3% and 9.59%
COc1cc(N2CCN(C)CC2)ccc1Nc1nc(N)n(C(=O)NCc2ccccc2S(=O)(=O)C(C)C)n1 — remaining activity (HIPK4; enzyme activity; 10 µM; reference: control): 15%
COc1ccc(-c2cn(C)c3nc(Cl)ccc23)cc1 — remaining activity (gag-pol integrase; strand transfer; HIV-1; 10 µM): 44%
Cc1cc(Cl)cc(C)c1OCC(=O)NC(C)C — remaining activity (SLC6A19; FLIPR membrane potential; CHO-BC; 30 µM, unit not given; reference: uninhibited): 0.932 and 0.934 and 0.925 and 0.897
CCOc1cc(N2CCN(C)CC2)ccc1Nc1nc(N)n(C(=O)NCc2ccccc2S(=O)(=O)C(C)C)n1 — remaining activity (HIPK4; enzyme activity; 10 µM; reference: control): 5.2%
Cc1cc(Nc2cc(N3CCN(C)CC3)nc(Sc3ccc(NC(=O)C4CC4)cc3)n2)[nH]n1 — remaining activity (RPS6KA5 (Homo sapiens, UniProt O75582); kinase activity, KinaseProfiler; 0.03 µM, species human; reference: control): 95%
COc1ccc(Cn2cc(-c3ccsc3)c3ccc(-c4ccncc4)nc32)cc1 — remaining activity (gag-pol integrase; strand transfer; HIV-1; 10 µM): 84.1%
COc1cc(Nc2ncc3c(n2)-c2ccc(Cl)cc2C(c2c(F)cccc2OC)=NC3)ccc1C(=O)O — remaining activity (PHKG1; kinase activity; 1 µM): 100%
Cc1ccc(C[C@H](NC(=O)OC(C)(C)C)C(=O)NC/C=C/S(=O)(=O)c2ccccc2)cc1 — remaining activity (Cathepsin B (CTSB, Homo sapiens, UniProt P07858); inhibitor; 5 µM, 60 min, with: Z-Arg-Arg-pNA; reference: uninhibited control): 47%
C[C@H]1[C@H](OC(=O)CCC(=O)O)O[C@@H]2O[C@@]3(C)CC[C@H]4[C@H](C)CC[C@@H]1[C@@]24OO3 — remaining activity (Non-structural polyprotein pORF1, helicase domain (Hepatitis E virus genotype 1, UniProt P33424); ATPase activity, inhibitor, colorimetric; 19.5 µM, preincubation 30 min, with: ATP 50 µM; reference: untreated): 62.5%
Cc1cccc(C)c1C(=O)OCC(=O)[C@H](CCCCN)NC(=O)[C@H](CCCNC(=N)N)NC(=O)OCc1ccccc1 — remaining activity (Procathepsin L (Mus musculus, UniProt P06797); inhibitor; 1 µM, with: AMC fluorogenic substrate; reference: untreated): 100%
Cn1cc(-c2cc(C(F)(F)F)cc(C(F)(F)F)c2)c2ccc(Cl)nc21 — remaining activity (gag-pol integrase; strand transfer; HIV-1; 10 µM): 51.7%
O=C1NC(=O)/C(=C/c2ccc(-c3ccc(F)cc3O)o2)S1 — remaining activity (MAPK12 (Homo sapiens, UniProt P53778); enzyme activity; 10 µM): 65%
Cc1cc(NC(=O)c2cccc(NC(=O)/C=C/CN(C)C)c2)ccc1Nc1nccc(-c2cccnc2)n1 — remaining activity (MAPK8 (Homo sapiens, UniProt P45983); enzyme activity, inhibitor; 0.5487 µM, 6 h, unit not given, with: GSH 10 mM pre-incubation; reference: vehicle): 0.575
Cc1cc(OCC(=O)NC(C)C)cc(C)c1Cl — remaining activity (SLC6A19; FLIPR membrane potential; CHO-BC; concentration not given; reference: 100 µM cinromide set to 0): 37.9%

Some of these lines once more:
O=C(NC1CCC1)c1ccc2nc(-c3cccc(NS(=O)(=O)NCCN4CCCCC4)c3)cn2c1 — remaining activity (PRKD3 (Homo sapiens, UniProt O94806); enzyme activity; 10 µM): 98%
Cc1cccc(-c2cn(C)c3nc(Cl)ccc23)c1 — remaining activity (gag-pol integrase; strand transfer; HIV-1; 10 µM): 80.6%
C[C@@H](Oc1ccc(S(C)(=O)=O)cc1C(=O)N1C[C@@H]2C[C@]2(c2cc(C(F)(F)F)on2)C1)C(F)(F)F — remaining activity (SLC6A9 (Homo sapiens, UniProt P48067); glycine uptake, inhibitor, [3H]glycine uptake; 0.005 µM, log concentration 5, with: [3H]glycine, 3.5 mg/mL methyl-β-cyclodextrin; reference: no inhibitor): 3.49%
